Measured values gathered from unrelated publications.
Numbered parts are unrelated; each lists some results of a single study. Substitutions count along the parent as printed.

Study 1 — technique: DHFR PCA, deep sequencing; medium: yeast; together with: (+)-ABA 0 µM; reference: wild-type fitted maximum; direction: higher = stronger binding
Target: ABI1, truncated, D143A, DHFR fusion (Arabidopsis thaliana)
Notes: methotrexate growth selection, single substitutions
Parent: PYL1, truncated, DHFR fusion (Arabidopsis thaliana); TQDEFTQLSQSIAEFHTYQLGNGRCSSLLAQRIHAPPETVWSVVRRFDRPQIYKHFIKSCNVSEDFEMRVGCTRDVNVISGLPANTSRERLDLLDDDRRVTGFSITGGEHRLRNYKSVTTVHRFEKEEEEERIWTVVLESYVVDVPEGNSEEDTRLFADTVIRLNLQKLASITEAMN
Substitution	relative binding score [%]
Y53Q	0.313
T154M	2.32
G108I	-9.12
G23V	1.74
A13F	5.66
V70E	5.47
H16M	-0.196
P37W	-3.47
Q51R	2.03
R69K	53.3
T86S	22.7
G107N	11.4
F157C	8.16
T119H	-2.52
K168R	22.2
K116R	39.5
T39C	14.5

Study 2 — technique: protein-binding microarray; molecule type: double-stranded DNA, one strand shown; medium: in vitro; concentration: 940 nM top; notes: 60-bp whole probe; together with: salmon DNA 0.4 mg/ml; reference: random background probes; direction: higher = stronger binding; all sequences stand within: GCCTAGCAC … GTCTTGATTCGCTTGACGCTGCTG
Target: Interferon regulatory factor 5, full length, phosphomimetic (IRF5, Homo sapiens, UniProt Q13568-2, residues 1-514, S451D/S453D/S456D/S462D)
Strand	fitted relative affinity
AACATACTCGTTTACATTTTGTGCTAG	0.419 z-score
TTAGGTTTCGGGACTTGGTTAGTGCTA	7.38 z-score
GACGGTTCCCTTGTCCTGACGTGCTAG	0.3 z-score
TGAGGTCTCGGTATCGGTTAGTGCTAG	5.79 z-score
GACGCACTGGACACTGGGGACGTGCTA	-0.371 z-score
TCATTTCCCTATTATATAACTGTGCTA	1.87 z-score
GCGGTTGGATCACAAGGTCAGTGCTAG	-0.723 z-score
GACGATATCGGGTATCGAGGCGTGCTA	0.879 z-score
GACGGTTTCGACACTGGGGATGTGCTA	6.8 z-score
TCATTTTTTTTTTCTACACTGTGCTAG	1.88 z-score
TTAGGTATCGACATTGGGTTAGTGCTA	4.66 z-score
TCAGTTGTCCAGGCTGGTACTGTGCTA	-0.26 z-score
TCCTGTGACGTTAAGGTCTCGTGCTAG	-0.117 z-score
GACGATTTCGGGTATCGGGACGTGCTA	1.44 z-score
GACGGTTTCGGTTTCGGCACGTGCTAG	13.3 z-score
TCAAAGTTCATGTTCAAACTGTGCTAG	-0.376 z-score
GACGGTCTCCTTCTCCTCACGTGCTAG	0.408 z-score
TTAGGATTGGGGTTTCGGTTAGTGCTA	6.12 z-score
GACGATCTCAGTATCGAGAGGTGCTAG	1.75 z-score
CCGCCGCCTGGCTGGGGGATGTGCTAG	-0.278 z-score
ATAGGTCTCCTTTTCCTTTAGTGCTAG	0.661 z-score
GAAGGTTTCGGTTCCGGGACGTGCTAG	11.9 z-score
TTAGGTTTCGGGACTGGATTAGTGCTA	7.85 z-score
TCATCTTTTCATTTTCTACTGTGCTAG	1.88 z-score
GACGATCTCAGACTGGAGTCGTGCTAG	-0.234 z-score

Study 3 — technique: RNA Bind-n-Seq; molecule type: RNA; medium: in vitro; concentration: 200 nM; notes: whole 134-nt RNA, ends assumed; together with: 150 mM LiCl; reference: input library; direction: higher = stronger binding; all molecules: 7-deaza-guanosine replaces G
Target: Ras GTPase-activating protein-binding protein 1, full length (G3BP1, Homo sapiens, UniProt Q13283)
Sequence of UniProt Q13283 (whole entry, looked up): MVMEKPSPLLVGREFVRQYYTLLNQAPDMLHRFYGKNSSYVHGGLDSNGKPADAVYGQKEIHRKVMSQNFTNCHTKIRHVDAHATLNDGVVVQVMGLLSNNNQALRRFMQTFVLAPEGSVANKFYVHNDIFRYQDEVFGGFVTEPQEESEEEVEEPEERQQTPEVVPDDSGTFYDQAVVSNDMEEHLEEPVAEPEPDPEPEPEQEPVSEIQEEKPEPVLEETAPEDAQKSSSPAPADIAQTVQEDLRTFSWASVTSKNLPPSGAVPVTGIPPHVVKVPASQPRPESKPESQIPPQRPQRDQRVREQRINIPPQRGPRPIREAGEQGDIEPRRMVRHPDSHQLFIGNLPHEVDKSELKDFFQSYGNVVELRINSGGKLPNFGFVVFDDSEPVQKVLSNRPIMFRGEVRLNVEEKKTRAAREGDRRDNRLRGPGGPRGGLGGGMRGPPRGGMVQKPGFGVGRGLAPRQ
All sequences stand within: GGGAGUUCUACAGUCCGACGAUC … UGGAAUUCUCGGGUGUCAAGG
Strand	log2 enrichment
GUCCUGUGCUACACAUCGUAUGUACCGAAUCGGGAAAGGGUUUUUUUGGGAAAAAGGGAAAGUAUUAUGUUACGCCGUUCGGAUCUGCAC	-0.549
UAACUUUAGAGGAGGAUCUGAUGGAUAUGGCAGUGGACGUGGAUUUGGGGAUGGCUAUAAUGGGCAUGGAGGAGGACCUGGAGGUGGCAA	0.051
UCAAGUCCUGUGCUACACAUCGUAUGUACCGAAUCGGGGUGGGGAGGGGAGGGGAAAGUAUUAUGUUACGCCGUUCGGAUCUGCACUUCC	0.0847
UGGCCCUGGUGGCAUGCGGGGAGGAAGAGGUGGCCUUAUGGAUCGUGGUGGUCCCGGUGGAAUGUUCAGAGGUGGCCGUGGUGGAGACAG	0.45
UCCUGUGCUACACAUCGUAUGUACCGAAUCGGCCCCCCCGGCCCCCCCGGCCCCCCCGGAAAGUAUUAUGUUACGCCGUUCGGAUCUGCA	0.394
CUCAAGUCCUGUGCUACACAUCGUAUGUACCGAAUCGGGGAAGGGAAGGGAAGGAAAGUAUUAUGUUACGCCGUUCGGAUCUGCACUUCC	-0.583
GAAACUACCCGUGUGUAAAAAGAAGAUUGGCUUAAAAUGGCUACUGUGAUGGGAACAGUGUCUUAGGGAGAUGCAGCUUGGACUUGAGGU	0.388
ACCAUGCAGGUGGGCAUCUUUGGGAAGUGGGGCAAGGGGGGGAUAGGGAGGAAAGUAACACUUUGGGAACAGGUGGUCCCAGGUCGUUUC	0.00375
UGGGAGGUGGAUUUUGUUUAUUUUUUUAGCUCAUUUCCAGGGGUGGGAAUUUUUUUUUAAUAUGUGUCAUGAAUAAAGUUGUUUUUGAAA	-0.324
CCUGUGCUACACAUCGUAUGUACCGAAUCGGCCCCCCCGGCCCCCCCGGGGCCCCCCCGGAAAGUAUUAUGUUACGCCGUUCGGAUCUGC	0.287
CUGUGCUACACAUCGUAUGUACCGAAUCGGGGCCCCCCCGGCCCCCCCGGGGCCCCCCCGGGAAAGUAUUAUGUUACGCCGUUCGGAUCU	1.28

Study 4 — technique: RNA Bind-n-Seq; molecule type: RNA; medium: in vitro; concentration: 100 nM; reference: input RNA pool; direction: higher = stronger binding
Target: RING finger protein unkempt homolog, zinc fingers 1-6, SBP tag (UNK, Homo sapiens, UniProt Q9C0B0, residues 30-357)
Sequence of UniProt Q9C0B0 (30-357, looked up): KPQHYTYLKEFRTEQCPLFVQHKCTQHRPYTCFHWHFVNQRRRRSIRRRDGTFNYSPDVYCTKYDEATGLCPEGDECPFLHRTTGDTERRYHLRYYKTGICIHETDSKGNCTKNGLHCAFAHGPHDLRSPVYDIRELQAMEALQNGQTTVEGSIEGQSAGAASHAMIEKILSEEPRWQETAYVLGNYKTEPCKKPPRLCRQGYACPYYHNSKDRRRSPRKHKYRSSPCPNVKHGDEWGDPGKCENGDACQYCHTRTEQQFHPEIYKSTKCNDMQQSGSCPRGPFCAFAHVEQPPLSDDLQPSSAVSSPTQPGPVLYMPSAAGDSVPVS
Notes: RNA with constant flanks, vertebrate orthologous sites, ends assumed
All sequences stand within: GGGAGUUCUACAGUCCGACGAUC … CAACAGAGGAUUGAGCAUCA
Strand	bound/input enrichment [ratio]
AUUCAAACCUGUGGUACCAUGGCCUCAUGUUGAAGGAGUAGAAGUGGACUUAGAGUCUAUUAGAAGAAAAAACAAGGCCAAAAAUGAACAAGAGCACCAUGCUGGAGGAGAUUCCCAGAA	0.299
CAGUUUUGUUUUUUUAAUGUUUCCUGUAAAUAAUGGAUAAUCAUUUUUUGUUUUGUUUUUAAGUGCUGUUUUAAAAAUGUGGAUAAACCAUAAGUGUACUUGCUGAAUUCAUUCAUUUUU	0.253
AAGAUGGUGGUUGUACAUAAUUUCAUUUAGAAAAUAUAAACUUUCGUUUUGUUUUGAAACUAGGUAUUAAACUGGAAUAGAUAAUACAACCCUGAGAAUGGGGCACUUAUGCCCUCCAUU	1.35
GUUGUGACCCAUUUAACAUACACAGGAAAGUAUCAAAGAAAAACUUACGUUCAAUCGACUUAGAUGAUGCAGCUUUUCUAAGUGCCAAGUUUGGAAGACAGUUUGUACCUGGUUGGAAGC	1.07
UAUUUUCUUACUUUAGGUAUCAUUGCCCAAUGCCCAAGAUCUUUUAUGUUCAGCUGACUGUAGGAAAUAAUGAAUUUUUUGGGGAAGGAAAGACUCGACAAGCUGCUAGACACAAUGCCG	0.992
UUCAGUCUCCUGGUCCAGGAAACUUAUUUUUUAACAUCUUGAAAUUUAACUCUGUGCUUGAAGAAGACUGUAACCUUUUUGUCUGUUUUGUUUUUGUUUUUAAACAUACAAUCUCCACCU	0.267
AAAUAUACUUCAUGCCAUGGACUCCAUAUCGCACUGAUACUUUGAUAGAAUAUGCUUCUUUAGAGGACUUCCAAAAUGGACGCCAACAGACAACUUACAAACUUCCAAAUAGAGUGGAUG	1.81
GCUCUCCUCUGAACCCCAUCUCUUCUGUCUCAUAGUGCAGAAAUGCUCUUAACUAUGUUUUAGUGGACUUGUUUUAAGUUUAGAGAAAUUUCCAGUACAGAUACUGUGAGCUGACAUGGA	0.459
CUUAUUUUCAGGUUGGCUCUAGUGGAAAAGUUAUAGGAAUUGACCAUAUUAAAGAGCUAGUAGAUGACUCAAUAAAUAAUGUCAAAAAGGACGAUCCAGUGCUUUUGUCUUCAGGAAGAG	0.577
CAUGUCCUUUUUACUGUGGUAUUCAGAACAACCACAGUACUCACUUUUUCCAAAUGAUUCUAGUAAUUGCCUAGAAAUAUCUUUUUCUUACCUGUUAUUUAUCAAUUUUUCCCAGUAUUU	1.4
AAGAAAUGCUGGCUGCAAACCCUCAGGAUCGUCCAGAUGCUUUUGAACUAGAACUCAGAUUAGUACAAAUUGCAUUUAAAGAUAACAGCUGGGAAACGUGACACAUAUAUUGUUUGCAAA	1.37

Some of these lines once more (study 2):
Strand	fitted relative affinity
GACGGTCTCCTTCTCCTCACGTGCTAG	0.408 z-score
TTAGGATTGGGGTTTCGGTTAGTGCTA	6.12 z-score
GACGATCTCAGTATCGAGAGGTGCTAG	1.75 z-score
CCGCCGCCTGGCTGGGGGATGTGCTAG	-0.278 z-score
ATAGGTCTCCTTTTCCTTTAGTGCTAG	0.661 z-score
GAAGGTTTCGGTTCCGGGACGTGCTAG	11.9 z-score
TTAGGTTTCGGGACTGGATTAGTGCTA	7.85 z-score
